Measurements pooled from the literature.
Numbered parts are unrelated; each lists some results of a single study. Substitutions count along the parent as printed.

Block 1 — method: DHFR PCA, deep sequencing; matrix: yeast; with: (+)-ABA 0.032 µM; relative to: wild-type fitted maximum; direction: higher = stronger binding
Target: ABI1, truncated, D143A, DHFR fusion (Arabidopsis thaliana)
Notes: methotrexate growth selection, single substitutions
Starting sequence: PYL1, truncated, DHFR fusion (Arabidopsis thaliana); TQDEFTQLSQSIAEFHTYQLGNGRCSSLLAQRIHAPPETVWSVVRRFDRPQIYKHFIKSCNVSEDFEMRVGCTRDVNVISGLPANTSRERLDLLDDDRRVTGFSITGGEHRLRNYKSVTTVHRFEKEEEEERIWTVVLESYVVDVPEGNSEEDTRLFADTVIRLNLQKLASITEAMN
Variant | relative binding score [%]
N114R | 5.28
L156F | 0.458
T160D | 0.839
S63F | -6.74
T17E | 2.74
V143N | -4.38
I12D | 4.33
K168Y | 2.84
E125W | 10.6
L138M | 7.61
D144H | -5.39
D159L | -9.08
N61S | 47.2
S104Q | -2.51

Block 2 — method: protein binding microarray; molecule type: double-stranded DNA, one strand shown; matrix: in vitro; concentration: not given; relative to: not given; direction: higher = stronger binding
Target: Histone acetyltransferase KAT6A, winged helix 2, GST fusion (KAT6A, Homo sapiens, UniProt Q92794, residues 85-181)
Notes: 8-mer, flanks averaged, mean of 2 arrays, mostly near background
Residues (chain): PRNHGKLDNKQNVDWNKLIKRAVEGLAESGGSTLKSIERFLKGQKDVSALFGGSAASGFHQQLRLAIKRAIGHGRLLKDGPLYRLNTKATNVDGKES
Oligonucleotide | E-score
AGCTGTGA | 0.0147
GCAGATGC | 0.192
GAAGTAGC | 0.0897
ACGGGAAA | 0.112
GAAAGTGC | -0.107
AATATGGT | 0.0196
ATAACTTG | -0.0309
CCAGTAGC | 0.0967
CACCCTCA | -0.0146
ATAGGTTC | -0.19
CACGTCGG | -0.00445
CGCAGTAA | 0.118
AATATTGG | -0.208
CCACTAAG | -0.00334
AGTCATCG | 0.00686
TCTAAAAA | 0.187
ATTCATCG | 0.0148
CTGGGCTC | 0.0594
CTTGCACA | -0.0826
ATCAAATG | -0.0248
GGACTTAA | -0.12
GATGGGGA | -0.0657
AAAAATGA | 0.0771
AGGAAACC | 0.0711
GATGCCCA | 0.207

Block 3 — method: RNA Bind-n-Seq; molecule type: RNA; matrix: in vitro; concentration: not given; relative to: input RNA pool; direction: higher = stronger binding
Target: RING finger protein unkempt homolog, zinc fingers 1-6, GST-SBP tag (UNK, Homo sapiens, UniProt Q9C0B0, residues 30-357)
Notes: RNA with constant flanks, human and mouse sites, ends assumed
All sequences stand within: GGGAGUUCUACAGUCCGACGAUC … CAACAGAGGAUUGAGCAUCA
Residues (chain): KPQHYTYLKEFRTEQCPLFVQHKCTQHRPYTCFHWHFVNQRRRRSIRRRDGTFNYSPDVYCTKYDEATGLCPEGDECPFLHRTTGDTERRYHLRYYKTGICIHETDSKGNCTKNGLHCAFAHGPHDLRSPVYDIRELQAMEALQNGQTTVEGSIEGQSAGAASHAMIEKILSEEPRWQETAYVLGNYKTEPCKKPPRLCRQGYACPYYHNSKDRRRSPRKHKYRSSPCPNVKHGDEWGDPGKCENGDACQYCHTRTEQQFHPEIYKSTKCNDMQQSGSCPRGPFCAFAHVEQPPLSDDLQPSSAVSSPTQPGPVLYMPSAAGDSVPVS
Oligonucleotide | bound/input enrichment [ratio]
CACAUCACUGAAAAUGGGCCAACUGAAGUGGACUACAGUCCUUCUGACAUGCAGGACUCCAGUUUAUCACAUAAGAUACCACCUAUGGAGGAGCCGUCCUACACCCAAGAUAAUGAUCUU | 0.167
UUUCUAAAAUACUGGCAUGCUGACCAACUCAAUGAUUUGUGCCUACAGUUGCAGAGAAAAAUUAUAACCUGCCAAAAAGUUAUCAGAGGAUUUUUAGCACGCCAGCACCUGCUUCAGAGA | 0.293
GAUCUCAUCGUGGCUGACAGUAGUCGCAAGGAAAUUCUCCAUUUUCCUAAGGGUGGGGGCUAUAGUGUCCUUAUUCGAGAGGGACUUACCUGUCCGGUGGGCAUAGCCCUAACUCCUAAG | 0.1
CAGGGCAAGCAGCCCAUCGGGCCGGAGGAUGUGCUGGGGCUGCAGCGGAUCACGGGUGACUACCUGUGCUCCCCUGAGGAAAAUAUCUACAAGAUUGACUUCGUCAGGUUCAAGAUCCGU | 0.0529
UUCACACUGGAUUACAACUACCCACUUUGUGCAGUACAGGCCUUUGGCAUCGGUCUUUCUAGCUUUGACAGUAAGCUGGCGUGUGAAUGAGAGAACAGUCAGGCAGGGAGCCCUUCUCCC | 0.186
UGUUUUCAUGCCCGGCCUUUGUUCCUCCAUAAAUGUGUCCUUUAGUUUCAAACAGAUCUUUAUAGUUCGUGCUUCAUAAGCCAAUUCUUAUUAUUAUUUUUGGGGGACUCUUCUUCAAAG | 8.04
GAAAACAUGGAAAGGAUGAGCGACUCGGCAGAUAAGCCGAUUGACAACGACGCGGAGGGCGUCUGGAGUCCUGAUAUUGAGCAGAGUUUCCAGGAGGCCCUGGCUAUCUAUCCGCCGUGU | 0.168
GUGCUUUUAUUACUUUCAUCUAUACACUUCCAGUGUCGAAGGCUGGACAGAUCUGCUCACUUUAGCACUCUGGCAAUUAAACAGAACCCCCUUCUGGCAGAAGCUUAUUCGAAUUUGGGG | 0.38
CAGAUCUAUAUCUAUAACGAGAAGAUUGUGAGUGGACACCUACAGCCUAACCUGGUGGACCUGUGUGCCUCUGUCGCAGAGCUGGAUGACAAGAGCAUUUCUGACAUGUGGGCCAUGGUA | 0.0476
UCCUGGAGUCAGGAAAGACAAACCUUCGCCGAUGUACUUACCUUGUGUUGGAUGAGGCUGACCGGAUGCUUGAUAUGGGCUUUGAGCCCCAGAUCCGUAAAAUUGUUGAUCAAAUCAGGC | 0.157
GCAGCCCUGUCUGUUCGAAAUCUCUCUCCUUAUGUUUCCAACGAACUUUUGGAAGAGGCCUUUAGCCAGUUUGGUCCUAUUGAAAGGGCUGUUGUAAUUGUGGAUGAUCGCGGAAGAUCU | 0.207

Block 4 — method: universal PBM; molecule type: double-stranded DNA, one strand shown; matrix: in vitro; concentration: not given; direction: higher = stronger binding
Target: Sal-like protein 4, full length isoform B (SALL4, Homo sapiens, UniProt Q9UJQ4-2, residues 1-616)
Notes: 8-mer, flanks averaged, mean of replicates
Residues (chain): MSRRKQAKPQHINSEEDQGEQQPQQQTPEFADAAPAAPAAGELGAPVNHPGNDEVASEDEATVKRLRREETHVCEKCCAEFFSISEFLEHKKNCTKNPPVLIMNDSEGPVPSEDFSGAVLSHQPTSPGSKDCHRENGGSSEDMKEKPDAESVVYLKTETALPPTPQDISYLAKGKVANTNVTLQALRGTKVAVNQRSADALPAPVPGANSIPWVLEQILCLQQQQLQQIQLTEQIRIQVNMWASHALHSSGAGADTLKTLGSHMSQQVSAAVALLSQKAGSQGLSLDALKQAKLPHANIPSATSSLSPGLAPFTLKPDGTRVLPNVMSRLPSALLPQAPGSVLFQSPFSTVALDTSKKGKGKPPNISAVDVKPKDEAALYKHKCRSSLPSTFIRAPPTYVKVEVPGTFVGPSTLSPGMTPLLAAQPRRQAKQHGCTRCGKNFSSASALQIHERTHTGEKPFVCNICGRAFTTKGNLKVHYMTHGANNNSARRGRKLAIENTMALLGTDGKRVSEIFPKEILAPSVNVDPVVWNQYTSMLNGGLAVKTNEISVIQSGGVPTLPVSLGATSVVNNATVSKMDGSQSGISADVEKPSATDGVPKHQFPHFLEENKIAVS
Oligonucleotide | E-score
ATACCCCG | -0.123
GCGCACAA | -0.065
ATCCGCTC | -0.302
CTTCAAAA | 0.189
ACGCGCTA | 0.0323
ACTCGGAG | -0.108
CGATCTAG | -0.045
AAACTTGC | 0.156
CTAACCTA | -0.02
AGGGAGGA | -0.17
CTTTGCGC | -0.0406
GTAACGTA | 0.228
ATCCTCAT | 0.021
AGTGTTCC | 0.06
GAACGCTA | -0.0712
ACAACGAG | 0.128
ACTTGATC | 0.128
GGCTTGAA | 0.0254
CGACGGCC | -0.299
CCACCAAC | -0.148
GAAGATTC | 0.095
TCCAGGGA | -0.284
CTCGTGGA | -0.181
AAAAAACT | 0.213
ACAATTGA | 0.146

Block 5 — method: RNA Bind-n-Seq; molecule type: RNA; matrix: in vitro; concentration: 365 nM; relative to: no-protein control; direction: higher = stronger binding
Target: RNA binding protein fox-1 homolog 2, RRM domain, GST-SBP tag (RBFOX2, Homo sapiens, UniProt O43251-10, residues 100-194)
Notes: natural RNA segment, single round, ends assumed
All sequences stand within: GGGAGUUCUACAGUCCGACGAUC … UGGAAUUCUCGGGUGCCAA
Target sequence (chain): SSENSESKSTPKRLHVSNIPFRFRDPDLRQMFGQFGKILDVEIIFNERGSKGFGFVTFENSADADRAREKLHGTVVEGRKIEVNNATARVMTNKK
Oligonucleotide | RBNS enrichment (R)
CCGGCCCGGCCCCGAGAGCAGGCUCGACCGCCGCCCCAUGGACCCCUCGCCCAGGCCGGGGCUGGAGGGAUUCGGCCGCGGCUCCGGUCCUGGGCGCUUCCCUUUUAAGC | 0.568
GAGCCUGAUGACUCCAAACAAAGCCAUCACCCGCAUUCUUCCUCCUUCUUCUGGUGCUACAGCUCCAAGGGCCCUUCACCUUCAUGUCUGAAAUGGAACUUUGGCUUUUU | 0.794
CCCCAUGACCCUGUAGAAAUUGAAUCCUGCUCACAACAUUGUUGGCCUUCUUACUAACCUUGGACCGUGAUUGAGCCCAAGAAACCAGGGACUUACGCAUUUGGCCAAUG | 0.789
UCAUCAGUGUUGAAACAUUCACCAUGUGCUGGACGUAGGUUUUCAAUAAACACAGAUUGGUACCACCUAACACAAGGCUGUGUGAGUCUGUAGUAUGACCAUUACGCUGA | 0.281
UGAGGGUGUGGCCAGUUCCCUGGUUCUGUGCCAUGCUGCUGCUUGGUGGCAUUGGUUAGGAAUGGGACACACGCCCCUUGUUGUGAAGUUUACAUGUGACCUUCUUAUAG | 0.19
GCCCUUUGAGACAAAAGAAACAGGCCCAGCACGAGUGGAAGUGGGUGUCUGUGUUUCUGUUUGCACUGUUUCUGUGACAGCCACCCAGGCAAAAUCAUGAAAUACACUCG | 0.792
UAUGUAUAUAUGUGAUGUUUUCAUAUAUAUAUGUGUGUGUGUUUAAAUUUUGUAUCAUCAGGACUGACACCCAAUUUGACACUUUUUGUAUCUAGAAGACCCUCCAAAAA | 0.632
ACUAUUAGGAAUUGAGAAGGGGGAUCAACUAAAUAAACGAAGAGAGUCUUUCUUAUGCCUUCCUUGCGUUAUGUAAUAUUUUCUUUUUUAAAUUUCACAUGCAUGUAAUU | 13
ACUGCCCCUUCAUUCGGGUCUCUAACAGCUCUCCAAGCUGGGUCAGCCACCACUGUGCUCGCUCCAACUGCGGGUAGCACAGGAGAGGAGGGACGGAUAAGGGCAGAUGU | 0.268
UUCCGACUUUUCAAAAAUUUGAUUAAAUGGUUUUAUAGUAUAAUAUUGGGACCCCAUACCGUUAGCCCUUGUAUGUAUACCAACACUGCCAAAGUAAAACAUUAGGUCAG | 0.691
ACACAGUUCACAAAACAGUACAAGGCAGUAUGACGAGAACUCAUCUUUGCUAACCUCAGCAGUUACUUUGUUUCUUUUGUUUAGAAAAGUGAUUGCAAUCCGUGUAUUUU | 0.388
CUGUGGUUAUGAAAAUUAGGCCAAGUGAUUUUAUUCCAAAUAUUAUUUAGUUGCCCUCAUUGGGAUCUCCUUUCUGUAAUUCAUCUUGGUUUACUUGAAAAUAAAUAUUU | 0.682

Excerpt of the above (block 2):
Oligonucleotide | E-score
ATAACTTG | -0.0309
AATATGGT | 0.0196
AGGAAACC | 0.0711
CACGTCGG | -0.00445
GAAAGTGC | -0.107
CACCCTCA | -0.0146
CTTGCACA | -0.0826
AAAAATGA | 0.0771
CGCAGTAA | 0.118
